Measured values collected from several papers.
± gives the spread as reported.

Compound	test	test system	conditions	scale	measurement	value
CC(C)[C@H](NC(=O)CNC(=O)[C@H](CCC(N)=O)NC(=O)[C@H](C)N)C(=O)O	–	human, both sexes, plasma	intravenous infusion, 90 mg/kg/h, 2 h infusion, geometric mean	–	clearance	433 mL/min/kg
CNC(=O)N[C@]1(C)CCC[C@@]2(C)C3CC[C@@]4(C)C[C@]3(CCC21)CC4=O (single isomer, unassigned)	–	processed rat plasma	1.5 ng/mL, 24 h, room temperature, autosampler stability	baseline: nominal concentration	relative error	7.1%
COc1cccc(C=NCCCN(C)CCN(C)CCCN=Cc2cccc(OC)c2[O-])c1[O-].[67Ga+3]	–	male rat, heart	iv, 120 min	–	uptake	2 %ID/organ
NC[C@@H](C(=O)Nc1ccc(-c2cn[nH]c2)cc1)c1ccccc1	OECD 405 eye irritation	New Zealand White rabbit, eye	topical, 0.1%, 24 h (day 2), scale 0 to 4	direction not given	cornea score	0
CCOc1ccc2c(c1)C(C)CC(C)(C)N2 (centres unmarked)	LC-MS/MS	laying hens, kidney	oral in feed, 50 mg/kg feed ethoxyquin, 56 days	–	tissue residue	1.9 ± 1.3 ng/g
CN1CCC[C@]1(C)/C=C/S(=O)(=O)NC(=O)Nc1c2c(cc3c1CCC3)CCC2	–	human, plasma	oral, 50 mg single dose	–	CL/F	1.2 L/h
CC[C@H](C)[C@H](NC(=O)[C@H](C)NC(=O)CNC(=O)[C@H](Cc1ccccc1)NC(=O)[C@H](CC(N)=O)NC(=O)[C@H](CC(N)=O)NC(=O)[C@H](CO)NC(=O)[C@H](CO)NC(=O)[C@H](Cc1c[nH]cn1)NC(=O)[C@@H](NC(=O)[C@H](CC(C)C)NC(=O)[C@H](Cc1ccccc1)NC(=O)[C@H](CC(N)=O)NC(=O)[C@H](C)NC(=O)[C@H](CC(C)C)NC(=O)[C@H](CCCNC(=N)N)NC(=O)[C@H](CCC(N)=O)NC(=O)[C@@H](NC(=O)[C@H](C)NC(=O)[C@@H]1CSSC[C@H](NC(=O)[C@@H](N)CCCCN)C(=O)N[C@@H](CC(N)=O)C(=O)N[C@@H]([C@@H](C)O)C(=O)N[C@@H](C)C(=O)N[C@@H]([C@@H](C)O)C(=O)N1)[C@@H](C)O)C(C)C)C(=O)N[C@@H](CC(C)C)C(=O)N1CCC[C@H]1C(=O)N1CCC[C@H]1C(=O)N[C@H](C(=O)N[C@@H](CC(N)=O)C(=O)N[C@H](C(=O)NCC(=O)N[C@@H](CO)C(=O)N[C@@H](CC(N)=O)C(=O)N[C@H](C(=O)N[C@@H](Cc1ccc(O)cc1)C(N)=O)[C@@H](C)O)C(C)C)[C@@H](C)O	ion mobility mass spectrometry	nitrogen drift gas	monomer ion charge +3	–	collision cross section	552 ± 8.4 Å²
CC(NC(=O)OC1OC(C(=O)O)C(O)C(O)C1O)c1cc(Cl)ccc1Cn1c(=S)[nH]c(=O)c2[nH]ccc21 (centres unmarked)	–	Sprague-Dawley rat, female, plasma	oral, 125 mg/kg/day	baseline: rat over human 15 mg	exposure ratio	1.4
COC(=O)c1ccc(-c2cn(Cc3cc(Cl)ccc3O[11CH3])nn2)cc1	PET Logan plot	rhesus monkey, basal ganglia	dose not given, t* 40 min	–	distribution volume (VT)	0.54 mL/cm³
Cn1c(=O)oc2ccc(-c3ccc(CC(C#N)NC(=O)C4CNCCCO4)c(F)c3)cc21 (centres unmarked)	measured: monocyte count increased	human	40 mg single dose, fasted	–	subjects with TEAE	0%
CC(C)[C@H](NC(=O)[C@@H]1CCCN1C(=O)[C@H](CCCNC(=N)N)NC(=O)[C@H](CS)NC(=O)[C@H](Cc1c[nH]c2ccccc12)NC(=O)[C@H](CCCNC(=N)N)NC(=O)[C@@H](Cc1ccccc1)NC(=O)[C@H](Cc1c[nH]cn1)NC(=O)[C@H](CCC(=O)O)NC(=O)[C@H](CS)NC(=O)[C@H](CS)NC(=O)[C@@H]1CC(=O)N[C@@H](CCCNC(=N)N)C(=O)NCC(=O)N[C@@H](CC(=O)O)C(=O)N[C@H](Cc2ccc(O)cc2)C(=O)N1)C(N)=O [technetium-99m labelled]	–	C57 mice B16/F1 melanoma female, urine	iv, 0.037 MBq, 0.5 h	–	excretion	29.3 ± 12.4%
CCCC[C@H](NC(=O)CNC(=O)CNC(=O)CN1CCN(CC(=O)O)CCN(CC(=O)O)CC1)C(=O)N[C@H]1CC(=O)NCCCC[C@@H](C(N)=O)NC(=O)[C@H](Cc2c[nH]c3ccccc23)NC(=O)[C@H](CCCNC(=N)N)NC(=O)[C@@H](Cc2ccccc2)NC(=O)[C@H](Cc2c[nH]cn2)NC1=O [copper-64 labelled]	–	female C57 mouse, B16/F1 melanoma	intravenous, 0.037 MBq, 0.5 h	baseline: tumour over heart	uptake ratio	14.1
COc1ccc(Nc2nc(Nc3ccc(OCCOCC[18F])cc3)ncc2Br)cc1	–	ICR mice, S180 tumour	intravenous, 370 kBq, 30 min	baseline: tumour over muscle	uptake ratio	2.49
C#CC(C)NC(=O)C(CC(C)(C)F)NC(c1ccc(-c2ccc(S(C)(=O)=O)cc2)cc1)C(F)(F)F (centres unmarked)	LC-MS UV trace	aqueous buffer	concentration not given, 23 h, pH 8.0, 37 °C, together with: cysteine 10 mM	–	cysteine adduct formation	0%
[O-]c1cccc(-c2cccc([O-])n2)n1.[Ru+2].c1cnc2c(c1)c1c(c3cccnc32)OCCO1.c1cnc2c(c1)c1c(c3cccnc32)OCCO1	shake flask	octanol/buffer	–	–	logP of basic form	2
C[C@H](CN(C)Cc1ccccc1)NC(=O)c1ccc(-c2noc(C(F)(F)[18F])n2)cc1	PET	Sprague-Dawley rat, female, brain and heart	intravenous, 60 min	baseline: brain SUV over heart SUV	brain-to-heart ratio	2.29 ± 0.22
C[C@H](NC(=O)COC(=O)[C@H](C)NC(=O)CO)C(=O)O	–	water	pH 6, 25 °C	–	depolymerization half-life	2.78 h
O=C(CCCCC[N+]#[C][99Tc-5]([C]#[N+]CCCCCC(=O)N[C@H]1C(O)O[C@H](CO)[C@@H](O)[C@@H]1O)([C]#[N+]CCCCCC(=O)N[C@H]1C(O)O[C@H](CO)[C@@H](O)[C@@H]1O)([C]#[N+]CCCCCC(=O)N[C@H]1C(O)O[C@H](CO)[C@@H](O)[C@@H]1O)([C]#[N+]CCCCCC(=O)N[C@H]1C(O)O[C@H](CO)[C@@H](O)[C@@H]1O)[C]#[N+]CCCCCC(=O)N[C@H]1C(O)O[C@H](CO)[C@@H](O)[C@@H]1O)N[C@H]1C(O)O[C@H](CO)[C@@H](O)[C@@H]1O (some centres unmarked)	dynamic SPECT	nude mouse U87 MG xenograft	5-10 min	baseline: tumour over muscle	tumour/muscle ratio	1.79
CC(=O)N[C@H](CSSC[C@H](N)C(=O)O)C(=O)N[C@H](C)C(=O)N[C@H](CCCNC(=N)N)C(=O)N[C@H](CCCNC(=N)N)C(=O)N[C@H](CCCNC(=N)N)C(=O)N[C@H](C)C(=O)N[C@H](CCCNC(=N)N)C(N)=O	–	male human, plasma	intravenous, 10 mg, single dose, healthy volunteers	–	half-life	18.3 h
O=C(O)CCC(NP(=O)(O)OCCC[C@@H](NC(=O)CC[C@H](NC(=O)CCCCCNC(=O)c1ccc([18F])cc1)C(=O)O)C(=O)O)C(=O)O (some centres unmarked)	–	mouse, CWR22Rv1 tumour xenograft, tumour	dose not given, 1 h	–	tumour uptake	2.35%
O=C1CCc2ccc(NS(=O)(=O)c3cccc(Oc4ccccc4)c3)cc2N1	rapid equilibrium dialysis	C57BL/6J mouse, brain	–	–	unbound fraction	3.28%

Compound	test	test system	conditions	scale	measurement	value
CN1CC[C@H](c2c(O)cc(O)c3c(=O)cc(/C=C/c4c(Cl)cccc4Cl)oc23)[C@H](O)C1	dissolution, USP paddle apparatus	water, 0.25% SLS	120 min, 37 °C, sink conditions	–	dissolved fraction	78%
CC(C)(O)c1ncc([S@](N)(=O)=NC(=O)Nc2c3c(cc4c2CCC4)CCC3)s1	–	human, plasma	oral, 30 mg, single dose, fasted, healthy volunteers	–	Cmax	1750 ng/mL
O=C([O-])CN1CCN(CC(=O)[O-])CCN(CC(=O)NC[C@H]2CC[C@H](C(=O)N[C@H](Cc3cnc4ccccc4c3)C(=O)NCCCC[C@H](NC(=O)N[C@@H](CCC(=O)O)C(=O)O)C(=O)O)CC2)CCN(CC(=O)[O-])CC1.[64Cu+2]	–	human patient	140 MBq, 24 h post-injection, at 1 m from patient	–	radiation exposure rate	< 0.4 µSv/h
CC1=C(/C=C/C(=O)N2CCN(C(N)=O)CC2)C(C)(C)CCC1	–	T17M RHO transgenic mouse	dose not given, 7 weeks	baseline: vehicle	photopic ERG amplitude	no effect
O=C(O)C1CN(Cc2ccc(-c3noc(-c4ccc(OCC[18F])c(C(F)(F)F)c4)n3)cc2)C1	–	rat, spleen	intravenous, 1 h	–	tracer uptake	0.251 %ID/g
CC(=O)N[C@H](C)c1cc(Cl)ccc1Cn1c(=S)[nH]c(=O)c2[nH]ccc21	–	Sprague-Dawley rat, both sexes, plasma	oral, 125 mg/kg/day	baseline: rat over human clinical doses	exposure ratio	≥ 1
CC(=O)c1cnc(N)nc1N1CC[C@H]1c1nn2ccc(Cl)c2c(=O)n1-c1ccccc1	–	female Wistar rat collagen-induced arthritis, plasma	oral, dose not given	–	AUC at ED50	1420 ng·h/mL
Cc1ccc(OCC(=O)N(Cc2cccs2)c2ccn[nH]2)cc1	–	female Sprague-Dawley rat, plasma	oral, 30 mg/kg, single dose	–	bioavailability	0.32%
Cc1ccc(/N=N/c2c(O)ccc3ccccc23)c(C)c1	–	extracted rat blood QC samples	0.2 µg/L, 12 h, room temperature, short-term stability	–	measured concentration	0.229 µg/L
COc1ccc(/C=C/c2ccc(-c3ccc(C)cn3)nc2)cc1	–	acetonitrile	zinc-free ligand, together with: quinine bisulfate reference	–	fluorescence quantum yield	0.28
COCC1CN(C2CCN(c3cc(OC)c(Nc4ncc(Br)c(Nc5ccc6c(c5P(C)(C)=O)OCCO6)n4)cc3C)CC2)C1	–	human	oral, 10 to 240 mg once daily, safety set, grade ≥3	–	patients with vomiting	3.7%
COCCN(CC(N)=O)C(=O)CN(CCOC)C(=O)CN(CCOC)C(=O)CN(CCC(=O)O)C(=O)CN(CCOC)C(=O)CN(CCOC)C(=O)CN(CCOC)C(=O)CN(CCCCN)C(=O)CN(CCOC)C(=O)CN(CCOC)C(=O)CN(CCOC)C(=O)CN(CCOC)C(=O)CN(CCOC)C(=O)CN(CCOC)C(=O)C(Cc1ccccc1)NC(C)=O (centres unmarked)	potentiometric titration with KOH	100 x 1 mM KCl	–	–	pKa of NH2 group	9.8
OC1(C(F)(F)F)CCN(c2nc(Nc3ccnc(C(F)(F)F)c3)nc(-c3cccc(C(F)(F)F)n3)n2)C1 (centres unmarked)	–	Sprague-Dawley rat, both sexes, bile	oral, 10.1 mg/kg, 48 h, together with: [14C]-labelled compound	baseline: dose	biliary excretion of radioactivity	5.67 ± 0.75%
C[C@]12C[C@H](c3ccccc3)C3=C4CCC(=O)C=C4CC[C@H]3[C@@H]1CC[C@@]2(O)C(F)(F)C(F)(F)F	–	rat liver microsomes	100 % absorption assumed	–	maximal oral bioavailability	88%
Nc1ncnc2c1nc(-n1nnc3c1CCC1C(CO)C1CC3)n2C1CC(O)C(CO)O1 (mixture of isomers)	frequency-domain fluorometry	methanol	–	–	average fluorescence lifetime	1.6 ns
O=C(CCc1ccc(CNC(C(=O)OC2CCCC2)C2CCCCC2)cn1)NO (centres unmarked)	–	human	40 mg, single dose, geometric mean	–	CL/F	255 L/h
CCCCC/C=C/C=C/C(=O)NCC(C)C	–	processed rat plasma	15 ng/mL, 4 h, 20 °C, autosampler stability low QC	baseline: nominal concentration	relative error	-0.67%
Cc1c(Cl)c(C)[n+]([O-])c(Cl)c1-c1no[14c](-c2cc(O)c(O)c([N+](=O)[O-])c2)n1	–	human, male, urine	oral, 100 mg, first 24 h	baseline: dose	total radioactivity recovered	~3%
COc1cc2c(cc1OC)CN(CCCCn1ccc3cc(OCC[18F])ccc31)C2	–	male CD-1 mouse, spleen	intravenous, 1 h	–	tracer uptake	6.13 %ID/g
CCCC[C@@H]1NC(=O)[C@@H](NC(=O)[C@H](CCC(=O)O)NC(=O)CNC(=O)CN2CCN(CC(=O)O)CCN(CC(=O)O)CCN(CC(=O)O)CC2)CCCCNC(=O)C[C@@H](C(N)=O)NC(=O)[C@H](C(C)C)NC(=O)[C@@H]2CCCN2C(=O)[C@H](CCCNC(=N)N)NC(=O)CNC(=O)[C@H](Cc2c[nH]c3ccccc23)NC(=O)[C@H](CCCNC(=N)N)NC(=O)[C@@H](Cc2ccccc2)NC(=O)[C@H](Cc2c[nH]cn2)NC(=O)[C@H](CCC(=O)O)NC1=O [gallium-67 labelled]	–	C57 mice with B16/F1 melanoma, pancreas	intravenous, 0.037 MBq, 0.5 h	–	tissue uptake	0.47 ± 0.07 %ID/g

For quick reference, copied from above:
Compound	test	test system	conditions	scale	measurement	value
C[C@]12C[C@H](c3ccccc3)C3=C4CCC(=O)C=C4CC[C@H]3[C@@H]1CC[C@@]2(O)C(F)(F)C(F)(F)F	–	rat liver microsomes	100 % absorption assumed	–	maximal oral bioavailability	88%
NC[C@@H](C(=O)Nc1ccc(-c2cn[nH]c2)cc1)c1ccccc1	OECD 405 eye irritation	New Zealand White rabbit, eye	topical, 0.1%, 24 h (day 2), scale 0 to 4	direction not given	cornea score	0
[O-]c1cccc(-c2cccc([O-])n2)n1.[Ru+2].c1cnc2c(c1)c1c(c3cccnc32)OCCO1.c1cnc2c(c1)c1c(c3cccnc32)OCCO1	shake flask	octanol/buffer	–	–	logP of basic form	2
COC(=O)c1ccc(-c2cn(Cc3cc(Cl)ccc3O[11CH3])nn2)cc1	PET Logan plot	rhesus monkey, basal ganglia	dose not given, t* 40 min	–	distribution volume (VT)	0.54 mL/cm³
COc1ccc(/C=C/c2ccc(-c3ccc(C)cn3)nc2)cc1	–	acetonitrile	zinc-free ligand, together with: quinine bisulfate reference	–	fluorescence quantum yield	0.28
O=C(CCCCC[N+]#[C][99Tc-5]([C]#[N+]CCCCCC(=O)N[C@H]1C(O)O[C@H](CO)[C@@H](O)[C@@H]1O)([C]#[N+]CCCCCC(=O)N[C@H]1C(O)O[C@H](CO)[C@@H](O)[C@@H]1O)([C]#[N+]CCCCCC(=O)N[C@H]1C(O)O[C@H](CO)[C@@H](O)[C@@H]1O)([C]#[N+]CCCCCC(=O)N[C@H]1C(O)O[C@H](CO)[C@@H](O)[C@@H]1O)[C]#[N+]CCCCCC(=O)N[C@H]1C(O)O[C@H](CO)[C@@H](O)[C@@H]1O)N[C@H]1C(O)O[C@H](CO)[C@@H](O)[C@@H]1O (some centres unmarked)	dynamic SPECT	nude mouse U87 MG xenograft	5-10 min	baseline: tumour over muscle	tumour/muscle ratio	1.79
CN1CC[C@H](c2c(O)cc(O)c3c(=O)cc(/C=C/c4c(Cl)cccc4Cl)oc23)[C@H](O)C1	dissolution, USP paddle apparatus	water, 0.25% SLS	120 min, 37 °C, sink conditions	–	dissolved fraction	78%
